Measured values gathered from unrelated publications.
Each line is one published result; not all experiments were run side by side. “And” joins repeats or separate records; there may be more than shown. Numbers after ± are the reported error.

For CN1C(=O)Cc2ccc(F)c(CCNCC[C@H]3CN(c4ccc5c(n4)NC(=O)CO5)C(=O)O3)c21, the IC50 was 68.6 µM (human DNA topoisomerase II; decatenation activity, inhibitor).
The ΔTm of C[N+](C)(C)CCOS(=O)(=O)[O-] is reported as 7.47 (SAR11_0797 Candidatus Pelagibacter ubique; differential scanning fluorimetry; concentration not given, unit not given; higher = stronger binding).
The inhibition of c1ccc(C(NCCNC(c2ccccc2)c2ccccc2)c2ccccc2)cc1 is reported as 4% (5-HT1 receptor, rat; binding; 10 µM, Eurofins selectivity panel).
For Cn1cc(C2=C(c3cn(C4CCN(Cc5ccccn5)CC4)c4ccccc34)C(=O)NC2=O)c2ccccc21, the inhibition was 18.5% (NLRP3 inflammasome (mouse); mouse BMDM; 10 µM).
Cn1c(=O)ccc2ccc(F)c(CCNC[C@H]3CN(c4ncc5c(n4)NC(=O)CO5)C(=O)O3)c21 gave an IC50 of over 120 µM (human DNA topoisomerase II; decatenation activity, inhibitor).
Under “AUC antagonist score”, CC(C)(O)C(=O)Nc1ccc([N+](=O)[O-])c(C(F)(F)F)c1 is recorded as 0.999 (androgen receptor pathway; antagonist; concentration not given; direction not given).
CSCC[C@H](NC(=O)CNC(=O)[C@H](CC(N)=O)NC(=O)[C@H](CCSC)NC(=O)[C@H](CCSC)NC(=O)[C@H](CCC(N)=O)NC(=O)[C@H](Cc1c[nH]c2ccccc12)NC(=O)[C@@H](N)CCSC)C(=O)N[C@@H](CO)C(=O)N[C@@H](CCC(N)=O)C(N)=O: “EPR amplitude reduction” about 15% (huntingtin exon 1 bundled fibrils; binding, EPR spin-labeled peptide; 8 µM).
For O=C(Nc1cccnn1)N1CCN([C@@H]2CCOc3cc(C(F)(F)F)ccc32)CC1, the inhibition was -3% (AMPA; Cerep BioPrint; 20 µM).
For NC(=O)c1nc(F)c[nH]c1=O, the IC50 was over 400 µM (human cytochrome c oxidase subunit I; item: cytochrome c oxidase subunit I; HepG2; 120 h).
Cn1c(=O)ccc2ccc(F)c(CCNC[C@@H]3CN(c4cnc5c(n4)NC(=O)CO5)C(=O)O3)c21 gave an IC50 of over 120 µM (human DNA topoisomerase II; decatenation activity, inhibitor).
With CNc1nc(-c2ccc3c(N)n[nH]c3c2)cc(N2C[C@@H](C(=O)NC3CCCCC3)CC[C@H]2C)n1 the maximum inhibition was 15.6% (human coronavirus OC43; virus-induced cell killing; MRC-5; screen).
CCCN1CCO[C@@H]2c3cc(O)ccc3OC[C@H]21 has an EC50 of 0.065 ± 0.012 µM (dopamine D2-like autoreceptors; inhibition of dopamine release, agonist, fast-scan cyclic voltammetry; Mus musculus, nucleus accumbens shell slice; single pulse stimulation).
CC(COc1ccc2c(c1)C(=O)N(CCOC(=O)NCc1cccc(-c3c[nH]cn3)c1)C2C)c1ccccc1 (stereo not drawn) gave a maximum proteolysis of about 80% (human transthyretin WIL* T46L/F49Y, fluorescein-labelled; protease sensitivity).
COc1cc(Nc2ncc(F)c(Nc3ccc4c(n3)NC(=O)C(C)(C)O4)n2)cc(OC)c1OC gave an IC50 of over 10 µM (Proteasome).
C[n+]1cn([C@@H]2O[C@H](COP(=O)([O-])OP(=O)(O)OP(=O)(O)OC[C@H]3O[C@@H](n4cnc5c(=O)[nH]c(N)nc54)[C@H](O)[C@@H]3O)[C@@H](O)[C@H]2O)c2nc(N)[nH]c(=O)c21: “time to complete hydrolysis” at most 14 h (Saccharomyces cerevisiae Dcs1p; substrate; concentration not given).
The L-arginine level of COc1cc(C(=O)N2CC[C@@H](O)[C@@H](N)C2)cc2nc(-c3cc4ccccc4n3CC3CC3)n(C)c12 is reported as about 1.1 fold (human PAD4; inhibitor; neutrophils from hyperglycemic patients; 10 µM, 72 h; baseline: untreated).
Cn1cccc1-c1cccnc1 has an inhibition of -17.8% (sigma receptor 1; radioligand binding; 50 µM).
CC[C@H]1CN2CC[C@H]1C[C@@H]2[C@@H](O)c1ccnc2ccc(OC)cc12 has an inhibition of -33.2% (Nedd8-cullin1 interaction; neddylation, AlphaScreen; 100 µM).
NCC(O)c1ccc(O)cc1 (racemic) gave a ΔTm of 7.7 °C (SAR11_0271 protein (Candidatus Pelagibacter sp.); thermal stabilisation, differential scanning fluorimetry).
CN1CCN(C)/C(=N/c2ccc([N+](=O)[O-])cc2C(=O)Nc2ccccc2)C1 has an inhibition of 0% (mouse phorbol ester receptor; radioligand binding; 10 µM).
With CC(C)[C@@]1(NC(=O)[C@@H]2C[C@@H]3c4cccc5[nH]cc(c45)C[C@H]3N(C)C2)O[C@@]2(O)[C@@H]3CCCN3C(=O)[C@H](Cc3ccccc3)N2C1=O.CS(=O)(=O)O the inhibition was 17% (Nedd8-cullin1 interaction; neddylation, AlphaScreen; 100 µM).
C[C@H](C(=O)N[C@H]1COc2ccccc2[C@@H]1S(C)(=O)=O)c1ccc(F)cc1 has an inhibition of -1% (NMDA receptor, rat, Agonism site; binding; 10 µM, Eurofins selectivity panel).
NOCC[C@H](N)C(=O)O has a maximum inhibition of 15.6% (human coronavirus OC43; virus-induced cell killing; MRC-5; screen).
CC(C)CC(=O)OC[C@H]1O[C@@](C#N)(c2ccc3c(N)ncnn23)[C@H](O)[C@@H]1O has an inhibition of 13% (NMDA receptor Polyamine site (rat); 20 µM).
For NC(=O)c1ncn([C@@H]2O[C@H](CO)[C@@H](O)[C@H]2O)n1, the IC50 was 97 ± 33 µM (human cytochrome c oxidase subunit I; item: cytochrome c oxidase subunit I; HepG2; 120 h).
For CN1C(=O)Cc2ccc(F)c(CCNC[C@H]3CN(c4ccc5c(n4)NC(=O)CO5)C(=O)O3)c21, the IC50 was over 120 µM (human DNA topoisomerase II; decatenation activity, inhibitor).
With C[N+](C)(C)CCOP(=O)(O)O the ΔTm was 6.71 and 2.79 (SAR11_0797 Candidatus Pelagibacter ubique; differential scanning fluorimetry; concentration not given, unit not given; higher = stronger binding).

Excerpt of the above:
For Cn1cc(C2=C(c3cn(C4CCN(Cc5ccccn5)CC4)c4ccccc34)C(=O)NC2=O)c2ccccc21, the inhibition was 18.5% (NLRP3 inflammasome (mouse); mouse BMDM; 10 µM).
Cn1c(=O)ccc2ccc(F)c(CCNC[C@H]3CN(c4ncc5c(n4)NC(=O)CO5)C(=O)O3)c21 gave an IC50 of over 120 µM (human DNA topoisomerase II; decatenation activity, inhibitor).
Under “AUC antagonist score”, CC(C)(O)C(=O)Nc1ccc([N+](=O)[O-])c(C(F)(F)F)c1 is recorded as 0.999 (androgen receptor pathway; antagonist; concentration not given; direction not given).
CSCC[C@H](NC(=O)CNC(=O)[C@H](CC(N)=O)NC(=O)[C@H](CCSC)NC(=O)[C@H](CCSC)NC(=O)[C@H](CCC(N)=O)NC(=O)[C@H](Cc1c[nH]c2ccccc12)NC(=O)[C@@H](N)CCSC)C(=O)N[C@@H](CO)C(=O)N[C@@H](CCC(N)=O)C(N)=O: “EPR amplitude reduction” about 15% (huntingtin exon 1 bundled fibrils; binding, EPR spin-labeled peptide; 8 µM).
